Experimental data from different studies.
A part holds a random share of what one study measured.

Set 1
Target: RNA binding protein fox-1 homolog 2, RRM domain, GST-SBP tag (RBFOX2, Homo sapiens, UniProt O43251-10, residues 100-194)
Technique: RNA Bind-n-Seq
Form: RNA
Sample: in vitro
Tested at: 365 nM
Notes: natural RNA segment, single round, ends assumed
Relative to: no-protein control
Direction: higher = stronger binding
Residues (chain): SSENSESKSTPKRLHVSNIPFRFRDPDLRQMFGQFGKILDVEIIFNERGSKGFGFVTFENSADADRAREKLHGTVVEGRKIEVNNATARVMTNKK
Sequence	RBNS enrichment (R)
GGGAGUUCUACAGUCCGACGAUCUCUCCUUAUCCACAUCCCUGCAGAAGGUGGGCCCUAUUCUCAGAAGAGUCCUGGCUGCUGUUGCCAUCUGAAUGCGCCCUUCCCUUUCAGGUUGACCAGCAGUGGCCUUAUGGAAUUCUCGGGUGCCAA	0.43
GGGAGUUCUACAGUCCGACGAUCAGCUAGGCCCGUGUGGUUAGAUCAGCUUUGUUACUGAAUUACCUAAAACCAGACCACAGCACAGCCAGGGAGCCCAGUAGUGUUUCCAAGAACAGUGUGGAGCUUGAGAAUGGAAUUCUCGGGUGCCAA	0.256
GGGAGUUCUACAGUCCGACGAUCAGGACAGCCUGUGGCGGUGCCUGGGUGGGGCUGCUCCUCCAGGGCCACGUGCCAGGCCCGGGGCUGGCGGCUACUCAGCAGCCCUCCUCACCCCGUCUGGGGUUCAGCCCUGGAAUUCUCGGGUGCCAA	0.368
GGGAGUUCUACAGUCCGACGAUCACUUGUUUGCACGACCACUUCCAGCUUGCUGCUUCCUUCAGUUCCCCAGGCUCCUCCUCCAAAUGCCAGCUGUGCCCACAAGCUGUUCUUAGGGCUCACACUCGCCUUUUUGGAAUUCUCGGGUGCCAA	0.988

Set 2
Target: Prothrombin, mature alpha-thrombin (F2, Homo sapiens, UniProt P00734)
Technique: aptamer microarray, sandwich
Form: DNA with 2'F-ANA
Sample: in vitro
Tested at: 200 nM
Notes: whole 15-mer aptamer, many near background
Together with: Cy3 exosite-II aptamer, 400 nM
Direction: higher = stronger binding
Sequence	mean fluorescence intensity [a.u.]
GGTTGGTGTGGTTGG (2'F-ANA at 2 3 5 8 9 10 11)	53.1
GGTTGGTGTGGTTGG (2'F-ANA at 3 6 8 9 11 12 14 15)	493
GGTTGGTGTGGTTGG (2'F-ANA at 2 3 4 7 8 9 11 13 14 15)	255
GGTTGGTGTGGTTGG (2'F-ANA at 1 2 6 7 8 9 10 11 13 14)	52.5

Set 3
Target: RING finger protein unkempt homolog, zinc fingers 1-6, GST-SBP tag (UNK, Homo sapiens, UniProt Q9C0B0, residues 30-357)
Technique: RNA Bind-n-Seq
Form: RNA
Sample: in vitro
Tested at: not given
Notes: RNA with constant flanks, human and mouse sites, ends assumed
Relative to: input RNA pool
Direction: higher = stronger binding
Construct (chain): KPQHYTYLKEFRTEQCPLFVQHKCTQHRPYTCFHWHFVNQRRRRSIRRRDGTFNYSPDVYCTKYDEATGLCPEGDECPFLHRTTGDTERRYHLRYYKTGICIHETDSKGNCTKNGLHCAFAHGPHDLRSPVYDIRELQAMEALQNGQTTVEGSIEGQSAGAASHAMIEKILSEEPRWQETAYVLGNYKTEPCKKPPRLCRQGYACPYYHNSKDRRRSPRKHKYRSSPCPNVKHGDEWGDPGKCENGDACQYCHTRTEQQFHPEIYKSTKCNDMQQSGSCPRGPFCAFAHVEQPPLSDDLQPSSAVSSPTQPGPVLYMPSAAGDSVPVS
Sequence	bound/input enrichment
GGGAGUUCUACAGUCCGACGAUCGAGUCUUAUUUGGAACUUGUGAAGUCCCUGUGUCUGGGGCCAGCACUGAUCCACACAGCUAAGUUUGCACUUGUCUUCCCUCUCAUGUAUCAUACCUGGAAUGGGAUCCGACACUUGAUGCAACAGAGGAUUGAGCAUCA	0.213 ratio
GGGAGUUCUACAGUCCGACGAUCAAGAGCCCCUUAAGUACCACCAUUCAGAUCAAACUGGAUAAUGUGGGCACAGUUACUGUCCCUGCUCCUGCACCAUCCAUUAGUGGUGAUGGUGACGGAAUUGAAGAGGAUAUUGCUCCACAACAGAGGAUUGAGCAUCA	0.0787 ratio
GGGAGUUCUACAGUCCGACGAUCAAUGCAAAAGGCUUGGCUGGAAUAUCAGGAGAAAGGAUUUGGGUGGAACUGAAAAAAAUUCUUGUUGGUAACCAUGUAAAUCAUUUGAUUCACCUUAUCUAUGAUCUUGAUGUGGCUCCUCAACAGAGGAUUGAGCAUCA	0.189 ratio
GGGAGUUCUACAGUCCGACGAUCUAUAAAUUUGUAAAUCUUAAUUCAAAGAUAACUUUUGUGUGGGUAUUGAGUUUGGAUCGGUUUUUUGUCUUGGUGUGGGCUGUGUGGCUUUUGGGAGGGGAUGUGUGUGAGAGAGGUGAGCAACAGAGGAUUGAGCAUCA	1.12 ratio

Other studies, line by line
Molecule	target	test	test system	conditions	scale	quantity	value
PhoQ, residues 284 288 289 292 302 303 SNSSNI	PhoP, residues 12 14 15 18 19 LHSVQ (Escherichia coli, UniProt P23836)	Sort-seq, refers to: YFP reporter	E. coli	PhoQ-PhoP variant library, together with: 10 µM Mg2+	relative to: high Mg2+ state, higher = stronger signaling	fold induction	1.6

Excerpt of the above (set 3):
Sequence	bound/input enrichment
GGGAGUUCUACAGUCCGACGAUCAAGAGCCCCUUAAGUACCACCAUUCAGAUCAAACUGGAUAAUGUGGGCACAGUUACUGUCCCUGCUCCUGCACCAUCCAUUAGUGGUGAUGGUGACGGAAUUGAAGAGGAUAUUGCUCCACAACAGAGGAUUGAGCAUCA	0.0787 ratio
